{"data": "Results of several laboratories", "note": "Every numbered part comes from another study and shows a few of its results, in no order. “And” joins repeats or separate records; there may be more than shown.", "sequence of UniProt O43353 (whole entry, looked up)": "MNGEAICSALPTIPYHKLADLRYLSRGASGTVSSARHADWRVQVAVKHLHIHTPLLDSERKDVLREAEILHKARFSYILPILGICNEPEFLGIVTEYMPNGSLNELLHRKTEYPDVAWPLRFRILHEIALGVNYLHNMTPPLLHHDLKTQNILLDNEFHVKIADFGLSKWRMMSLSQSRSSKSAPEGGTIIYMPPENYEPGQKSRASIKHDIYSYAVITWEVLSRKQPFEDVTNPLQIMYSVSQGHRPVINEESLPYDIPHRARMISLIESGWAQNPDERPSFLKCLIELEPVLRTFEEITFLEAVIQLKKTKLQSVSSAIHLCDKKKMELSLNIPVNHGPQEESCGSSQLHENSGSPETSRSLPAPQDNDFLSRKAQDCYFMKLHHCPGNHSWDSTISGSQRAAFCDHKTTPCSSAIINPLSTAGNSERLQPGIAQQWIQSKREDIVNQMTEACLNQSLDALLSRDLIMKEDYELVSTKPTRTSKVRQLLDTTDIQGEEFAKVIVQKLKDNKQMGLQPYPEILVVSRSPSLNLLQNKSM", "sequence of UniProt Q86UX6 (whole entry, looked up)": "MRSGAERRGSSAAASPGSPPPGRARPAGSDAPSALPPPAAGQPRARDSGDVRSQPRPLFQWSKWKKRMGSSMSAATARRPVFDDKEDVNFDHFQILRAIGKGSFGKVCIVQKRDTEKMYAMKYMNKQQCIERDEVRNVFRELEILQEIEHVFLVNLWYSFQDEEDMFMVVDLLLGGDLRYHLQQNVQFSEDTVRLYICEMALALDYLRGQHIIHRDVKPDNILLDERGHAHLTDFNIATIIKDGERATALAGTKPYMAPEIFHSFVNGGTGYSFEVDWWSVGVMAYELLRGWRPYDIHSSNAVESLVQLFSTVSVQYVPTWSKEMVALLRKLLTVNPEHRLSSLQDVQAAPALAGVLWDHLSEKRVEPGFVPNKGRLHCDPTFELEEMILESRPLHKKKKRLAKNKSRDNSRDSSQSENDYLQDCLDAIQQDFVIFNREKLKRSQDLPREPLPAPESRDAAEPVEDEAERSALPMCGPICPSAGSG", "sequence of UniProt Q9UBS0 (whole entry, looked up)": "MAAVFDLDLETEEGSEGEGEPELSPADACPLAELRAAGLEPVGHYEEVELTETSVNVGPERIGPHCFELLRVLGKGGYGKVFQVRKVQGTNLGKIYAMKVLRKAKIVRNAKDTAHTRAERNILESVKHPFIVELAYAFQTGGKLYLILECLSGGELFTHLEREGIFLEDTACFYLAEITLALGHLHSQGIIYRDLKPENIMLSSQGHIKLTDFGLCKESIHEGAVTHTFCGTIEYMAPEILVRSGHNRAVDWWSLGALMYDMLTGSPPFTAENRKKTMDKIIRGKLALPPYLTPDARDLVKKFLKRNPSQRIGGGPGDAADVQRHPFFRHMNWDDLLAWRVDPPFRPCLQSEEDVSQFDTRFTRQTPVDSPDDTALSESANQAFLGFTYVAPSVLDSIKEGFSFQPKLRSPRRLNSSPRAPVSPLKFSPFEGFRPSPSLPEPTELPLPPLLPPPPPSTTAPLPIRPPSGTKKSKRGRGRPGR", "sequence of UniProt Q9HCP0 (whole entry, looked up)": "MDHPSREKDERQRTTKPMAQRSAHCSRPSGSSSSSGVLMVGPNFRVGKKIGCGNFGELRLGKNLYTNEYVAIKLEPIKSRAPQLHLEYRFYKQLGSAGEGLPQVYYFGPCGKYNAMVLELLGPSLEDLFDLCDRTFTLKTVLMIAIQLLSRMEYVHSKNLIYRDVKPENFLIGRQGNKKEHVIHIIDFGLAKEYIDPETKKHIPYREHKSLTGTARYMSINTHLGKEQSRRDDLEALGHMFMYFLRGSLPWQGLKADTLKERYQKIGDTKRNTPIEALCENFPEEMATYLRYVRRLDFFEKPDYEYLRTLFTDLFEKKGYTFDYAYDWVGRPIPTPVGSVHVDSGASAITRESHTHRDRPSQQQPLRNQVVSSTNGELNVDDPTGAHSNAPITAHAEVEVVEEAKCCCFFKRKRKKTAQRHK", "sequence of UniProt P42681 (whole entry, looked up)": "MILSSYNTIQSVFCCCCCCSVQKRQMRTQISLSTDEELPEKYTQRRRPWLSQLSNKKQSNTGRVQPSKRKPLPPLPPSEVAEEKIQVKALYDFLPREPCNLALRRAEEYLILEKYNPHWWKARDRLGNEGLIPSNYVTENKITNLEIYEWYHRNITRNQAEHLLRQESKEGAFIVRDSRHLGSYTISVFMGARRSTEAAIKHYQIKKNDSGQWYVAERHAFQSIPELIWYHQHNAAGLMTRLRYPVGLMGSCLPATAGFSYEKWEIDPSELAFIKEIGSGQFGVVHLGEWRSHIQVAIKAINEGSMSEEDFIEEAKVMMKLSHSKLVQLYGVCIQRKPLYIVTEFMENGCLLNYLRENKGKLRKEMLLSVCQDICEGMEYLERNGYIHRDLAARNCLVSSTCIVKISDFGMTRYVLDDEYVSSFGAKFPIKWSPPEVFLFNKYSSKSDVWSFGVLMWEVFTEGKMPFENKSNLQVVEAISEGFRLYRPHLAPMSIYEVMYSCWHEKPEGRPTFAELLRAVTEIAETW", "sequence of UniProt Q15375 (whole entry, looked up)": "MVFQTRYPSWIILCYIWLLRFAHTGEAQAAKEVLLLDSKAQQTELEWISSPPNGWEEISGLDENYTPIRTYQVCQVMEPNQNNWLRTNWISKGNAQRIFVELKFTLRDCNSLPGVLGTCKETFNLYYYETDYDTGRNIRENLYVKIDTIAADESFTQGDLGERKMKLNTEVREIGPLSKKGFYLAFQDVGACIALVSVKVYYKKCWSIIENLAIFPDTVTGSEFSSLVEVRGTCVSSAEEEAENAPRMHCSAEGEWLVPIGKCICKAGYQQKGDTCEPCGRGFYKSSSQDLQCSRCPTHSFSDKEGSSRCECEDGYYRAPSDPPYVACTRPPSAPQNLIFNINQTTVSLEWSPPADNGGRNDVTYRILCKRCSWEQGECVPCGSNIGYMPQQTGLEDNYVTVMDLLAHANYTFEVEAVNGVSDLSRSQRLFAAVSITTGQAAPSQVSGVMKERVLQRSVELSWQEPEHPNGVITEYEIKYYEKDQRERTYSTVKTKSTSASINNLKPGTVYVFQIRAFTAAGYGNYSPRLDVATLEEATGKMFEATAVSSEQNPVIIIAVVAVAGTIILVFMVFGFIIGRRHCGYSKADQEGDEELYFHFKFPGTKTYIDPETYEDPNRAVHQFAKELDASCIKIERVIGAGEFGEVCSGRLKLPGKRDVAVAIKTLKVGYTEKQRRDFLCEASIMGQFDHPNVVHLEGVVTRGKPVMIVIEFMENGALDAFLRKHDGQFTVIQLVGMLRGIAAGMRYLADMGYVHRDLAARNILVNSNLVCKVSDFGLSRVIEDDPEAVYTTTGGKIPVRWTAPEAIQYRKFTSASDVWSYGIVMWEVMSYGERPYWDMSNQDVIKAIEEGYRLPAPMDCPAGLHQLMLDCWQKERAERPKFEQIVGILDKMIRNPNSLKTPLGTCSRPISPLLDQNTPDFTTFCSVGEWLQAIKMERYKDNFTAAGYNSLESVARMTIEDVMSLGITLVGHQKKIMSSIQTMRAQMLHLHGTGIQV", "sequence of UniProt P51956 (whole entry, looked up)": "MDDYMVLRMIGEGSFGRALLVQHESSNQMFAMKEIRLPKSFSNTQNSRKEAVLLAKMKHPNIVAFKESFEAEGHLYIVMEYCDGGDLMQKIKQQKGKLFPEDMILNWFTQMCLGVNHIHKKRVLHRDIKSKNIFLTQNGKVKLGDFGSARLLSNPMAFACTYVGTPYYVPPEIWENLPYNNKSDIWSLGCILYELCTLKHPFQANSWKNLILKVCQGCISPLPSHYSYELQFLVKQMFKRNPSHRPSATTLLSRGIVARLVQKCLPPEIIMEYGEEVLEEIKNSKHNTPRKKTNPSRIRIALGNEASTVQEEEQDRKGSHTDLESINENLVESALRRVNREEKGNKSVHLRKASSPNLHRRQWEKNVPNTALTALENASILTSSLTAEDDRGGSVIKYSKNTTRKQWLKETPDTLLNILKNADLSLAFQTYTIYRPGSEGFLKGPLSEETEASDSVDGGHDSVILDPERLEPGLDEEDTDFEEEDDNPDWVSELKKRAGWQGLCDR"}
{"data": "Study 1", "target": "Diamine acetyltransferase 1 (Homo sapiens, UniProt P21673)", "action": "inhibitor", "concentration": "10 µM", "baseline": "control", "Residues (P21673 1-171)": "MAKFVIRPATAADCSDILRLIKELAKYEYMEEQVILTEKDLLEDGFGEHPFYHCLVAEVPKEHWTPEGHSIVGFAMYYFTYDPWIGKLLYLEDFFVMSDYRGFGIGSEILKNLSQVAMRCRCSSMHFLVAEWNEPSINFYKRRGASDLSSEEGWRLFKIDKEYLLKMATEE"}
{"SMILES": "C[C@@H]1CC[C@]2(C(=O)O)CC[C@]3(C)C(=CC[C@@H]4[C@@]5(C)C[C@@H](O)[C@@H](O)C(C)(C)[C@@H]5CC[C@]43C)[C@@H]2[C@]1(C)O", "remaining activity [%]": 90.6}
{"SMILES": "CC(C)C[C@H](N)C(=O)O", "remaining activity [%]": 102}
{"SMILES": "C[C@@H]1O[C@@H](O[C@H]2[C@H](Oc3cc(O)c4c(=O)cc(-c5ccc(O)cc5)oc4c3)O[C@H](CO)[C@@H](O)[C@@H]2O)[C@H](O)[C@H](O)[C@H]1O", "remaining activity [%]": 95}
{"data": "Study 2", "SMILES": "CC(C)n1cnc(-c2ccc(F)cc2)c1-c1ncc(C(=O)Nc2ccc(N3CCN(C)CC3)cc2)[nH]1", "method": "Phase 2a trial", "host": "idiopathic pulmonary fibrosis patients"}
{"test": "item: blood alkaline phosphatase increased", "setting": "dose not given, grade 5 maximum intensity, all arms", "patients with adverse events [%]": 0}
{"test": "item: blood creatine phosphokinase increased", "setting": "30 mg once daily, grade 3 maximum intensity", "patients with adverse events [%]": 0}
{"test": "item: weight increased", "setting": "30 mg once daily, grade 3 maximum intensity", "patients with adverse events [%]": 0}
{"test": "item: neutrophil count increased", "setting": "dose not given, grade 3 maximum intensity, all arms", "patients with adverse events [%]": 0}
{"data": "Study 3", "SMILES": "CS(=O)(=O)NCC[C@H](NC(=O)c1cncc2c1cnn2-c1ccc(F)cc1)c1ccnc(S(C)(=O)=O)c1", "method": "competition with immobilised ligand", "concentration": "1 µM"}
{"target": "TXK (Homo sapiens, UniProt P42681)", "test": "binding", "remaining binding [%]": 84}
{"target": "STK32C (Homo sapiens, UniProt Q86UX6)", "test": "cell-free assay", "remaining binding [%]": 100}
{"target": "WEE1 (Homo sapiens, UniProt P30291)", "test": "cell-free assay", "remaining binding [%]": 99}
{"target": "EPHA7 (Homo sapiens, UniProt Q15375)", "test": "cell-free assay", "remaining binding [%]": 82}
{"target": "NEK3 (Homo sapiens, UniProt P51956)", "test": "cell-free assay", "remaining binding [%]": 86}
{"data": "Study 4", "Structure (SMILES)": "CC(C)S(=O)(=O)c1ccc2nccc(Nc3ccc4sc(C5CCCC5)nc4c3)c2c1.Cl", "observed": "kinase activity", "action": "inhibitor", "concentration": "1 µM"}
{"target": "RPS6KB2 (Homo sapiens, UniProt Q9UBS0)", "remaining activity": "98%"}
{"target": "CSNK1G1 (Homo sapiens, UniProt Q9HCP0)", "remaining activity": "97%"}
{"target": "WNK4 (Homo sapiens, UniProt Q96J92)", "remaining activity": "90%"}
{"target": "RIPK2 (Homo sapiens, UniProt O43353)", "remaining activity": "1% and 4%"}
{"data": "Study 5", "target": "Protein-tyrosine kinase 6 (PTK6, Homo sapiens, UniProt Q13882)", "observed": "enzyme activity", "action": "inhibitor", "concentration": "0.5 µM", "baseline": "control", "sequence of UniProt Q13882 (whole entry, looked up)": "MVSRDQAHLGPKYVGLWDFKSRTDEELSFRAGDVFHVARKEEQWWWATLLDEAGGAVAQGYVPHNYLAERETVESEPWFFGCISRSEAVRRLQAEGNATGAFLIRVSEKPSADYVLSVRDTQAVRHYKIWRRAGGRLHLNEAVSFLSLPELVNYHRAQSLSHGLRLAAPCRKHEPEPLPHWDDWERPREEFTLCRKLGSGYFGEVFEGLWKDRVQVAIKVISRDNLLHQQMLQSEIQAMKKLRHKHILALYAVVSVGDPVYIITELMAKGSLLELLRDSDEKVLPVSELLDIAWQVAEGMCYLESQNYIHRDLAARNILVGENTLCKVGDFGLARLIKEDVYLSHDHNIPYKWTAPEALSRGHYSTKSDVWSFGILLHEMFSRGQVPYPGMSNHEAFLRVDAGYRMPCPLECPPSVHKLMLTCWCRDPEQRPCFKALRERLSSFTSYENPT"}
{"Compound": "O=C(Nc1cccc(Nc2cc(Nc3cccc(C(F)(F)F)c3)ncn2)c1)C1CC1", "remaining activity [%]": 98.4}
{"Compound": "COc1cc2ncnc(Nc3ccc(F)c(Cl)c3)c2cc1OCCCN1CCOCC1", "remaining activity [%]": 77.2}
{"Compound": "COc1cc2ncnc(Nc3ccc(Oc4ccccc4)cc3)c2cc1OC", "remaining activity [%]": -0.0383}
{"Compound": "Cc1ccc(Nc2nccc(N(C)c3ccc4c(C)n(C)nc4c3)n2)cc1S(N)(=O)=O", "remaining activity [%]": 66.2}
{"Compound": "COc1ccc(OC)c2c(=S)c3ccccc3[nH]c12", "remaining activity [%]": 84}
{"Compound": "O=S(=O)(c1cccc2cnccc12)N1CCCNCC1", "remaining activity [%]": 96.1}
{"Compound": "Nc1ncnc2n[nH]c(Nc3ccc(F)cc3)c12", "remaining activity [%]": 68.3}
{"Compound": "Nc1ccc2ncnc(NCCc3ccc(Oc4ccccc4)cc3)c2c1", "remaining activity [%]": 93.3}
{"Compound": "NCCNc1ncc(C(N)=O)c(Nc2cccc(C(F)(F)F)c2)n1", "remaining activity [%]": 69}
{"Compound": "Cc1cccc(-c2[nH]c(C(C)(C)C)nc2-c2ccc3c(c2)OCO3)n1", "remaining activity [%]": 87.7}
{"Compound": "CCOC(=O)c1c(C)[nH]c(/C=C2\\C(=O)Nc3ccccc32)c1C", "remaining activity [%]": 82.8}
{"Compound": "N#CC(C#N)=C(N)/C(C#N)=C/c1ccc(O)cc1", "remaining activity [%]": 84.9}
{"Compound": "O=C(O)c1ccc2c3c1cccc3c(=O)n1c3ccccc3nc21", "remaining activity [%]": 91.1}
{"Compound": "Cc1nc(-c2ccccc2)c(-c2ccncc2)o1", "remaining activity [%]": 86}
{"Compound": "OCC(O)CCON=C1C(c2c(O)[nH]c3ccccc23)=Nc2ccccc21 (stereo not shown)", "remaining activity [%]": 73.3}
{"note": "Excerpt of the above (study 1):"}
{"SMILES": "C[C@@H]1CC[C@]2(C(=O)O)CC[C@]3(C)C(=CC[C@@H]4[C@@]5(C)C[C@@H](O)[C@@H](O)C(C)(C)[C@@H]5CC[C@]43C)[C@@H]2[C@]1(C)O", "remaining activity [%]": 90.6}
{"SMILES": "CC(C)C[C@H](N)C(=O)O", "remaining activity [%]": 102}
{"SMILES": "C[C@@H]1O[C@@H](O[C@H]2[C@H](Oc3cc(O)c4c(=O)cc(-c5ccc(O)cc5)oc4c3)O[C@H](CO)[C@@H](O)[C@@H]2O)[C@H](O)[C@H](O)[C@H]1O", "remaining activity [%]": 95}
